# Measured values pooled from the literature.
# A part holds a random share of what one study measured. Substitutions count along the parent as printed.

# Block 1
# Target: CCND2, cyclin fold, Cln2 fusion (human)
# Technique: yeast growth competition, sequencing
# Medium: yeast
# Notes: weak parent motif
# Baseline: not given
# Direction: higher = stronger binding
# Parent: WEE1 docking peptide (human); CTLRQKLIFSPCS; partner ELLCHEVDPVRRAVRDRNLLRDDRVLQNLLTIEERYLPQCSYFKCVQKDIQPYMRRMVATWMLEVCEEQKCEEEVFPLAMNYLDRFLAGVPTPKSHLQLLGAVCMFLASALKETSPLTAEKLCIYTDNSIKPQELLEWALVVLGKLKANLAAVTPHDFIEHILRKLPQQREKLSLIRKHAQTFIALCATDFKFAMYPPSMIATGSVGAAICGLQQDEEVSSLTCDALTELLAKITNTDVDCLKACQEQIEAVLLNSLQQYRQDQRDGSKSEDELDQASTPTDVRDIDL
Change,normalised enrichment score
CTLRQKLIFSPAS [C12A],-0.149
CTLRQKLIASPCS [F9A],-0.153
CTLRQKLAFSPCS [I8A],-0.0505
CTLRQKLIFSPCA [S13A],-0.0057
CTARQKLIFSPCS [L3A],0.201
CTLRQKAIFSPCS [L7A],-0.0437
CTLRAKLIFSPCS [Q5A],0.127

# Block 2
# Target: BATF2, bZIP domain (human)
# Technique: DHFR protein complementation
# Medium: yeast
# Notes: single substitutions, most at no-binding floor
# Baseline: wild-type JUN-FOS pair
# Direction: higher = stronger binding
# Parent: JUN, bZIP domain (human); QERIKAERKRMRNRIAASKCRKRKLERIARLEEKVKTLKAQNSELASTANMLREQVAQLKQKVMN; partner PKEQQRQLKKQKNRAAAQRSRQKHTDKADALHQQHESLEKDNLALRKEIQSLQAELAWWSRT
Change,binding fitness [natural log]
L52E,-1.15
L31A,-0.757
L31C,-0.755
E54H,-0.558
A57H,-0.39
L52P,-1.5
S47E,-0.0859
V35C,-0.304
T48A,-0.39
K39G,-0.746
N42T,-1.25
L52Q,-1.14
A57Y,-0.577
L38E,-1.22
A57Q,-0.361
L45F,-1.03
A57N,-0.271
A49K,-0.556
R30W,-0.223
R53A,-0.712
I28M,-0.236
S43W,-0.569
N42G,-1.29
A46G,-0.765
L38F,-1.39

# Block 3
# Target: ABI1, truncated, D143A, DHFR fusion (Arabidopsis thaliana, UniProt P49597)
# Technique: DHFR PCA, dose-response
# Medium: yeast
# Notes: Hill fit, mean, not affinity
# Together with: (+)-ABA, dose series
# Direction: lower = more sensitive
# Parent: PYL1, truncated, DHFR fusion (Arabidopsis thaliana, UniProt Q8VZS8); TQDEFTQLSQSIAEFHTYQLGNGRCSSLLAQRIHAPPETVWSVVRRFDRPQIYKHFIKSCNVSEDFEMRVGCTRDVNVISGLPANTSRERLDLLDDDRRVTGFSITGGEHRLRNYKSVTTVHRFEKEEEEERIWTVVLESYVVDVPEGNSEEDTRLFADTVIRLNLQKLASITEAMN
Change,ABA EC50
R113N,2.03 µM
D65G,2.53 µM
V44L,2.8 µM
R155N,13.6 µM
F66P,18.5 µM
I162L,51.7 µM
L20F,4.72 µM
G148H,12.9 µM
T6S,2.51 µM
K126L,1.69 µM
M68I,2.97 µM
L28H,129 µM
N22R,3.81 µM
S11W,2.14 µM
G102T,287 µM
L8W,4.88 µM
D96S,110 µM
Y18Q,9.17 µM
S63A,2.72 µM
I12R,57.7 µM
G148C,35.3 µM
D75K,1.84 µM

# Block 4
# Target: Sal-like protein 4, full length isoform A (SALL4, Homo sapiens, UniProt Q9UJQ4, residues 1-1053)
# Sequence of UniProt Q9UJQ4 (whole entry, looked up): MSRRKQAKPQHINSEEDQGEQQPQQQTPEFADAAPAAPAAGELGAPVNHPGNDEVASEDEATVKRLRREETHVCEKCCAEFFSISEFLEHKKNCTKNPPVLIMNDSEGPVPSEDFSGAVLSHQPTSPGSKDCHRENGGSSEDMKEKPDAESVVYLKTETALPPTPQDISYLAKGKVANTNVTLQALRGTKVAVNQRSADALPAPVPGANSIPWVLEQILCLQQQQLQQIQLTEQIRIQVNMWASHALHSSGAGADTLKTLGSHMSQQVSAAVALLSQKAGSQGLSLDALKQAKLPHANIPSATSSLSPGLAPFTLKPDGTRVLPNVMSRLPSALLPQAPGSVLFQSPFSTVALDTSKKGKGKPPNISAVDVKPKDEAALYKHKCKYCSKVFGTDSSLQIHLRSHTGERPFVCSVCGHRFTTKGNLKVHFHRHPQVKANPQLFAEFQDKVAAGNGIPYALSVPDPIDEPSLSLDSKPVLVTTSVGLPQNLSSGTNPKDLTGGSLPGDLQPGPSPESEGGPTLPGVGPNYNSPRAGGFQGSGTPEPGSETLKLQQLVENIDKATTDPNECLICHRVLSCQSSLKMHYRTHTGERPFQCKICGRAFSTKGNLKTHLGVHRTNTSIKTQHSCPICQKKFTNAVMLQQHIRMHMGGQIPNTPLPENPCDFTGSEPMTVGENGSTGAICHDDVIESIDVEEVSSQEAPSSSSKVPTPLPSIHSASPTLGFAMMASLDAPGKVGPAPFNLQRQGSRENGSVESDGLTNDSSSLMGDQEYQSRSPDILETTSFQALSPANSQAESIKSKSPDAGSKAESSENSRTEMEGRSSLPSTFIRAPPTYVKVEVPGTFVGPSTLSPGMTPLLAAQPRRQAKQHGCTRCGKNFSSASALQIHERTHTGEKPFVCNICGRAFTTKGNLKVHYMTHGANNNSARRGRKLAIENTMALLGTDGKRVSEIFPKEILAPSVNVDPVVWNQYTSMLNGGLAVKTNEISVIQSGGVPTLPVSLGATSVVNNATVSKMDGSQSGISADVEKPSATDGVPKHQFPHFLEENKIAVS
# Technique: universal PBM
# Molecule type: double-stranded DNA, one strand shown
# Medium: in vitro
# Concentration: 600 nM
# Notes: 8-mer, flanks averaged, mean of replicates
# Direction: higher = stronger binding
Oligonucleotide,E-score
GCCGCTTA,-0.163
TCCATCGA,0.0838
GCATCACC,-0.24
CGCGGTAA,-0.0493
GTGCACGA,-0.108
GTTTTGTA,0.216
GAACAGTC,-0.207
GCATGGTA,-0.0327
GTCGTTTA,0.141
GAACATTC,0.109
GCTCGCCA,-0.254
AGCCCCAT,-0.167
AGACGTTG,-0.0582
ACGGCACA,-0.105
TATGGTCA,0.178
ATGATCCA,0.0569
TCCGTCAA,0.102
TGTGCGAA,-0.0522
CGAAAGAG,-0.0299
CTACTGTA,0.103
ACAGTTCA,0.128

# Block 5
# Target: RNA binding protein fox-1 homolog 2, RRM domain, GST-SBP tag (RBFOX2, Homo sapiens, UniProt O43251-10, residues 100-194)
# Technique: RNA Bind-n-Seq
# Molecule type: RNA
# Medium: in vitro
# Concentration: 365 nM
# Notes: natural RNA segment, single round, ends assumed
# Baseline: no-protein control
# Direction: higher = stronger binding
# Shared flanks, not repeated: GGGAGUUCUACAGUCCGACGAUC … UGGAAUUCUCGGGUGCCAA
# Residues (chain): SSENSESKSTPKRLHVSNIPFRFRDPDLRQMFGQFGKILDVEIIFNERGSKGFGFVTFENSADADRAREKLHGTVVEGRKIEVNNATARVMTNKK
Oligonucleotide,RBNS enrichment (R)
ACUUUACACACUAAGUAAACACUUAUUGUCAGGUGCCUAGUCUUGAGUGAAUUGUUAGAUGUGCACUGAACUCGGGAUGUUGGGGAUUGGAGAGAGAGAAUUGCCAAAGU,2.21
AGAGAACUAUAUGAAUUCUAACAAGUCAUAGGUUAAUAUUUAAGACACUGAAAAAUCUAAGUGAUAUAAAUCAGAUUCUUCUCUCUCAAUUUUAUCCCUCACCUGUAGCA,6.46
GUGAGCAGCCCUGCCAGACUACUGCCAGACUGAGAAACCCAGAAGCUGGUAGUCAUGUGGGCUUGCCUUCUCUGCCAAACGACUGGGAAACCAAAAUGAGCCCACCUUGU,0.353
ACAAUCACUUUUUAAAUGACUUUUUGAGCCUUAAAUCCAUAUUCACUUGUGAGAAUCAGGAAAGAAUUCCUCGAGUUGCUUUGCAUCCUCUUGGACCAGGGCUUGCAAGG,0.541
AGCUGGGGCCUCUGAAGGGAUUCCUCACUGUGGGCAGCUGCCCUGAGCUUCAGGCAGCAGUGUUUAUCUCUGGCCAGUUGUCUGGUUUCCAUGUAUUCUAGGCCAGGUAG,0.303
CAGCCUUGGGAAAGGGGGACUCUUAGCUCUGUUGGUAUCACCGGGCCAUCUGGAAUGCAAGGUGAGACUGGCCAGCCGGUCUGACUCUGAUCCCAGGUGACUGGCUCUUG,0.28
CUGGUCCGCAUAUAUAAAGGUCACCAGGAAGCACAGUCAUAAACCUGGUCCCCCACCUAUCAGCACCAACUCUCAGUUCAUCAGGGUUGAGAAAGGACACUGGAUUGAGC,0.592
GGAGAAGGGGAAGCCUCUUGGAGACAGAGGGUUUCACCUUAUAUGACCUCAAGAGAAACAGCCUAAGAAGCCCGCCUUCUGGUCCCAAUCUGCAGACCCUCCAGCAGUUG,0.353
